Published values of several laboratories.
Every numbered part comes from another study and shows a few of its results, in no order. Positions count from the first letter of the parent shown.

Block 1
Target: ABI1, truncated, D143A, DHFR fusion (Arabidopsis thaliana)
Method: DHFR PCA, deep sequencing
Sample: yeast
Setting: methotrexate growth selection, single substitutions
Added: (+)-ABA 2500 µM
Reference: wild-type fitted maximum
Reading: higher = stronger binding
Parent: PYL1, truncated, DHFR fusion (Arabidopsis thaliana); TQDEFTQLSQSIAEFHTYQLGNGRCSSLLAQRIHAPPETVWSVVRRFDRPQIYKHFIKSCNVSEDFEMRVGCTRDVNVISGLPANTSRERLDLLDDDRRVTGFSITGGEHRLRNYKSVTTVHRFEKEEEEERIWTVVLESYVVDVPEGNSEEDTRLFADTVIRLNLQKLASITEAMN
`G21D` — result for “relative binding score”: 99.4%.
Under “relative binding score”, `S104P` is recorded as 2.4%.
`T154I` — result for “relative binding score”: 82%.
`S11W` — result for “relative binding score”: 102%.
For `F103D`, “relative binding score” read 0.398%.
`E139K`: “relative binding score” 75.9%.
Under “relative binding score”, `E4W` is recorded as 96.3%.
`H16V` — result for “relative binding score”: 37.4%.
For `V100Q`, “relative binding score” read 94.5%.
`E38W`: “relative binding score” 96.5%.
`I162T` — result for “relative binding score”: 70.9%.
Under “relative binding score”, `V145D` is recorded as 16.7%.
`V44M`: “relative binding score” 88.5%.
For `S140G`, “relative binding score” read 69.5%.
For `L82R`, “relative binding score” read 15.6%.
`T154W`: “relative binding score” 7.9%.
For `H110C`, “relative binding score” read 81.8%.
For `I52L`, “relative binding score” read 95.9%.
`E131F` — result for “relative binding score”: 101%.
Under “relative binding score”, `R123A` is recorded as 107%.
Under “relative binding score”, `G21M` is recorded as 97%.
Under “relative binding score”, `S59E` is recorded as 101%.
`T135C`: “relative binding score” 101%.
For `D3T`, “relative binding score” read 91.4%.
For `N85T`, “relative binding score” read 99.6%.

Block 2
Target: Sal-like protein 4, full length isoform B (SALL4, Homo sapiens, UniProt Q9UJQ4-2, residues 1-616)
Method: universal PBM
Form: double-stranded DNA, one strand shown
Sample: in vitro
Concentration: not given
Setting: 8-mer, flanks averaged, mean of replicates
Reading: higher = stronger binding
Construct (chain): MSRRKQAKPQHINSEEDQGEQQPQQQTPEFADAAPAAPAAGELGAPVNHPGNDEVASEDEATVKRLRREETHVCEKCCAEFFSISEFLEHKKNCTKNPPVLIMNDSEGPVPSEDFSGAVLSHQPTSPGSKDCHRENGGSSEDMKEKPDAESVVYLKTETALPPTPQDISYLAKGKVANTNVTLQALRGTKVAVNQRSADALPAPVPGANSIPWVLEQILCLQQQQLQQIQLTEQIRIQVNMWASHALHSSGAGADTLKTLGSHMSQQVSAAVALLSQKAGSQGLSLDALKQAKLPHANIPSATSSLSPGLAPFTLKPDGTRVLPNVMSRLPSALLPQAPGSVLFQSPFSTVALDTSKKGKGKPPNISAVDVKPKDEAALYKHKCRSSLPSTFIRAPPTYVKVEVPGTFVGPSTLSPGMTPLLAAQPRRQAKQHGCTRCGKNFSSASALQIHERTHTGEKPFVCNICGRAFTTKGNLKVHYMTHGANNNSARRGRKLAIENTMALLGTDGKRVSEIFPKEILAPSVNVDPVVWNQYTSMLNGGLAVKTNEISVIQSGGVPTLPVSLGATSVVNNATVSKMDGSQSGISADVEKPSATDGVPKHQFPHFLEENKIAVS
For `AAAGTAGC`, the E-score was -0.00133.
The E-score of `ATTCCGAG` is reported as -0.00804.
The E-score of `CGCCCGAG` is reported as -0.342.
For `CACGCTGA`, the E-score was -0.0641.
`TACTTAGA` has an E-score of 0.0825.
`GGCGCGGA` gave an E-score of -0.334.
The E-score of `AGACTCGG` is reported as -0.34.
`AGGTAGGA` has an E-score of -0.0081.
For `GGCGACCC`, the E-score was -0.371.
`CATAACAG` gave an E-score of 0.183.
With `ACCTAAGT` the E-score was 0.0408.
For `AGCACTAT`, the E-score was 0.0721.
`CGCATCAA` has an E-score of 0.0176.
`AGGCCTAC` has an E-score of -0.2.
`CCGATTAA` gave an E-score of 0.119.
`CTTGTTTA` has an E-score of 0.0465.
`TTGTACAA` has an E-score of 0.296.
The E-score of `CATCCTTA` is reported as 0.0668.
`AATGTACG` gave an E-score of 0.035.
For `ACACAGTC`, the E-score was -0.0135.
`ATTGAGCA` gave an E-score of 0.117.
`ACTCAACA` has an E-score of 0.195.
The E-score of `ATATCAAA` is reported as 0.36.
`AGTCTCGA` has an E-score of -0.0268.

Block 3
Target: UBE2V1 UBC core domain (UniProt Q13404)
Chain of UniProt Q13404 (whole entry, looked up): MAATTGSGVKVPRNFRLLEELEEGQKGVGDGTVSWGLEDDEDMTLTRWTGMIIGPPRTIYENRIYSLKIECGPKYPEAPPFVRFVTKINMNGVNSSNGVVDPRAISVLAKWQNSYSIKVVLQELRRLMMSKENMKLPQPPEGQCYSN
Method: yeast two-hybrid
Sample: yeast
Setting: mostly zero background
Reference: not given
Reading: higher = stronger interaction
B1: RNF166 RING domain (UniProt Q96A37); chain GDSGLEAQYTCPICLEVYHRPVAIGSCGHTFCGECLQPCLQVPSPLCPLCRLPFDPKKVDK
B2: MYCBP2 RING domain (UniProt O75592); chain TSLKQDADDMCMICFTEALSAAPAIQLDCSHIFHLQCCRRVLENRWLGPRITFGFISCPICKNKINHIVLKD
B3: DEF8 RING domain (UniProt Q6ZN54); chain AGRLGCSLTEIHTLFAKHIKLDCERCQAKGFVCELCREGDVLFPFDSHTSVCADCSAVFHRDCYYDNSTTCPKCARLSLRK
B4: TRIM37 RING domain (UniProt O94972); chain SVESIAEVFRCFICMEKLRDARLCPHCSKLCCFSCIRRWLTEQRAQCPHCRAPLQLRELVN
B5: TRIM60 RING domain (UniProt Q495X7); chain ALVNLQEESSCPICLEYLKDPVTINCGHNFCRSCLSVSWKDLDDTFPCPVCRFCFPYKSFRR
B6: TRIM22 RING domain (UniProt Q8IYM9); chain VKVDIEKEVTCPICLELLTEPLSLDCGHSFCQACITAKIKESVIISRGESSCPVCQTRFQPGNLRP
B7: MKRN2 RING domain (UniProt Q9H000); chain FAFQASQDKVCSICMEVILEKASASERRFGILSNCNHTYCLSCIRQWRCAKQFENPIIKSCPECRVISEFVIPSV
Under “lacZ reporter activity”, `RYRQMEERITCPICIDSHIRLVFQCGHGACAPCGSALSACPICRQPIRDRIQIF (MIB2 RING domain (UniProt Q96AX9))` is recorded as 0.
`B1 (RNF166 RING domain)` — result for “lacZ reporter activity”: 0.
`KPDKMEETLTCIICQDLLHDCVSLQPCMHTFCAACYSGWMERSSLCPTCRCPVERICKNH (CHFR RING domain (UniProt Q96EP1))`: “lacZ reporter activity” 0.
`FVKTVEDKYKCEKCHLVLCSPKQTECGHRFCESCMAALLSSSSPKCTACQESIVKDKVF (TRAF3 RING domain (UniProt Q13114))`: “lacZ reporter activity” 0.
Under “lacZ reporter activity”, `B2 (MYCBP2 RING domain)` is recorded as 0.
For `AEADPLGRFTCPVCLEVYEKPVQVPCGHVFCSACLQECLKPKKPVCGVCRSALAPGVRAV (RNF114 RING domain (UniProt Q9Y508))`, “lacZ reporter activity” read 0.
For `B3 (DEF8 RING domain)`, “lacZ reporter activity” read 0.
For `MNDVLENELQCIICSEYFIEAVTLNCAHSFCSYCINEWMKRKIECPICRKDIKSKTYSL (RNF8 RING domain (UniProt O76064))`, “lacZ reporter activity” read 0.
`B4 (TRIM37 RING domain)`: “lacZ reporter activity” 0.
Under “lacZ reporter activity”, `B5 (TRIM60 RING domain)` is recorded as 0.
Under “lacZ reporter activity”, `YCEMGSTFQLCKICAENDKDVKIEPCGHLMCTSCLTAWQESDGQGCPFCRCEIKGTEPII (CBLB RING domain (UniProt Q13191))` is recorded as 0.
`LGTKLEAKYLCSACRNVLRRPFQAQCGHRYCSFCLASILSSGPQNCAACVHEGIYEEGIS (TRAF2 RING domain (UniProt Q12933))`: “lacZ reporter activity” 0.
For `B6 (TRIM22 RING domain)`, “lacZ reporter activity” read 0.
For `YPEEVDDDLICHICLQALLDPLDTPCGHTYCTLCLTNFLVEKDFCPMDRKPLVLQHCKK (LNX1 RING domain (UniProt Q8TBB1))`, “lacZ reporter activity” read 0.
Under “lacZ reporter activity”, `B7 (MKRN2 RING domain)` is recorded as 0.

Block 4
Target: CCND1, cyclin fold, Cln2 fusion (human)
Method: yeast growth competition, sequencing
Sample: yeast
Setting: weak parent motif
Reference: not given
Reading: higher = stronger binding
Parent: CDKN1B docking peptide (human); PSACRNLFGPVDH
`C4T`: “normalised enrichment score” 0.168.
For `V11N`, “normalised enrichment score” read 0.915.
Under “normalised enrichment score”, `P10F` is recorded as 0.52.
Under “normalised enrichment score”, `C4M` is recorded as -0.156.
`L7D` — result for “normalised enrichment score”: 0.515.
`H13C` — result for “normalised enrichment score”: 0.788.
For `P1R`, “normalised enrichment score” read 0.849.
For `R5A L7A`, “normalised enrichment score” read -0.228.
Under “normalised enrichment score”, `P1D` is recorded as 0.343.
Under “normalised enrichment score”, `D12Q` is recorded as 0.824.
For `C4S`, “normalised enrichment score” read 0.429.
`H13N`: “normalised enrichment score” 0.752.
`S2L`: “normalised enrichment score” 0.616.
For `P10A`, “normalised enrichment score” read 0.421.
`V11W`: “normalised enrichment score” 1.32.
`R5I`: “normalised enrichment score” 0.344.
`P1K`: “normalised enrichment score” 1.04.
For `P10S`, “normalised enrichment score” read 0.473.
Under “normalised enrichment score”, `V11E` is recorded as 1.24.
`D12M` — result for “normalised enrichment score”: 0.451.

Some of these lines once more (block 4):
For `V11N`, “normalised enrichment score” read 0.915.
Under “normalised enrichment score”, `P10F` is recorded as 0.52.
Under “normalised enrichment score”, `C4M` is recorded as -0.156.
`L7D` — result for “normalised enrichment score”: 0.515.
`H13C` — result for “normalised enrichment score”: 0.788.
For `P1R`, “normalised enrichment score” read 0.849.
For `R5A L7A`, “normalised enrichment score” read -0.228.
Under “normalised enrichment score”, `P1D` is recorded as 0.343.
